Assay results gathered from unrelated publications.
Compare with care: the assays were run in different laboratories.
Sequence of UniProt O75716 (whole entry, looked up): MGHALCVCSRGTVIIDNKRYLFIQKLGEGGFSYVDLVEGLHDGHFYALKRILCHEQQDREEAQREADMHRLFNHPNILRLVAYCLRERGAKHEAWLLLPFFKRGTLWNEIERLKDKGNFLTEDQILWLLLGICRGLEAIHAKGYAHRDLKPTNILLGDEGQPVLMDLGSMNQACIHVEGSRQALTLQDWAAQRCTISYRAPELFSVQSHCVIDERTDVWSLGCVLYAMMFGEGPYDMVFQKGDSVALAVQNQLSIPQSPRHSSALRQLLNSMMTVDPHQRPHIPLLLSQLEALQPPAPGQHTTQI

Structure (SMILES) | target or system | test | system | setting | endpoint | result
CC(C)=CCC/C(C)=C/CC/C(C)=C/CC[C@@](C)(O)CCC1=C(C)C(=O)C(C)=C(C)C1=O | – | – | human, plasma | oral, 400 mg, single dose, healthy volunteers | half-life | 10.9 h
COc1ccc2c(c1)CN(C(=O)CCN1CCC(Cc3ccccc3)CC1)CC[S@@+]2[O-] | – | – | male human, plasma | intravenous, 0.6 mg/kg, single dose, healthy volunteers | half-life | 4.52 h
COc1ccc([C@@H]2CN(C(=O)[C@@H](O)CO)C[C@@]2(C)[C@@H](C)O)cc1OC1CN(c2ccc(C)cn2)C1 | – | – | human, plasma | oral, 20 mg, single dose, healthy volunteers | half-life | 9.39 h
CC(=O)N(C)[C@H]1CCN(C(=O)c2cnc3c(c2)C[C@](C)(c2ccc(F)cc2)N3)C1 | – | – | male human, plasma | oral, 60 mg, multiple doses, once daily, steady state | half-life | 28.4 h
OC[C@H]1O[C@@H](c2cc(Cc3ccc(C4CC4)cc3)c(Cl)c3c2CCO3)[C@H](O)[C@@H](O)[C@@H]1O | – | – | human, plasma | oral, 0.3 mg, single dose, fed, healthy volunteers | half-life | 12.3 h
C[C@@H](Oc1ccc(S(C)(=O)=O)cc1C(=O)N1C[C@@H]2C[C@]2(c2cc(C(F)(F)F)on2)C1)C(F)(F)F | – | – | human, plasma | oral, 10 mg, single dose, fed | half-life | 39.1 h
NS(=O)(=O)OC[C@@H]1C[C@@H](n2ccc3c(N[C@H]4CCc5ccccc54)ncnc32)C[C@@H]1O | – | – | human, plasma | intravenous, 15 mg/m², single dose, patients | half-life | 5.7 h
N#Cc1cccc(-c2ccc3ncc(-c4cc(F)cc(F)c4)c(N4CCC(N)CC4)c3c2)c1O | – | – | human, plasma | oral, 20 mg, single dose | half-life | 28 h
C=CC(=O)NC1CCN(c2ncc3ncnc(Nc4ccc(Oc5ccc6c(c5)ncn6C)c(C)c4)c3n2)CC1 | – | – | male human, plasma | oral, 60 mg, single dose, healthy volunteers | half-life | 45.2 h
O=C(COc1ccc(Cl)cc1)NC12CC(c3nnc([C@H]4C[C@@H](OC(F)(F)F)C4)o3)(C1)C2 | – | – | human, plasma | oral, 100 mg, single dose, fasted, healthy volunteers | half-life | 39 h
CNc1ncc2c(/C=C/C(=O)N3CCC(OC)CC3)nn(Cc3cccc(C(F)(F)F)c3)c2n1 | Serine/threonine-protein kinase 16 (STK16, Homo sapiens, UniProt O75716) | enzyme activity, inhibitor, radiometric | – | 1 µM | remaining activity | 85%
COc1ccc([C@@H](O)c2cc(-c3ncnc4cc(N5CCOCC5)ccc34)c(F)cc2Cl)nn1 | – | – | human, plasma | oral, 300 mg, multiple doses, twice daily, patients | half-life | 11.4 h
CNC(=O)n1ccc2cc(Oc3ccnc(NC(=O)c4ccc(C5CCN(CCO)CC5)cc4)c3)c(OCCOC)cc21 | – | – | human, plasma | oral, 35 mg, single dose, fasted, healthy volunteers | half-life | 30 h

A few entries again:
Structure (SMILES) | target or system | test | system | setting | endpoint | result
CNc1ncc2c(/C=C/C(=O)N3CCC(OC)CC3)nn(Cc3cccc(C(F)(F)F)c3)c2n1 | Serine/threonine-protein kinase 16 (STK16, Homo sapiens, UniProt O75716) | enzyme activity, inhibitor, radiometric | – | 1 µM | remaining activity | 85%
